Assay results pooled from the literature.
Numbered parts are unrelated; each lists some results of a single study. Changes are numbered by the printed parent chain.

Series 1
Target: RING finger protein unkempt homolog, zinc fingers 1-6, GST-SBP tag (UNK, Homo sapiens, UniProt Q9C0B0, residues 30-357)
Chain of UniProt Q9C0B0 (30-357, looked up): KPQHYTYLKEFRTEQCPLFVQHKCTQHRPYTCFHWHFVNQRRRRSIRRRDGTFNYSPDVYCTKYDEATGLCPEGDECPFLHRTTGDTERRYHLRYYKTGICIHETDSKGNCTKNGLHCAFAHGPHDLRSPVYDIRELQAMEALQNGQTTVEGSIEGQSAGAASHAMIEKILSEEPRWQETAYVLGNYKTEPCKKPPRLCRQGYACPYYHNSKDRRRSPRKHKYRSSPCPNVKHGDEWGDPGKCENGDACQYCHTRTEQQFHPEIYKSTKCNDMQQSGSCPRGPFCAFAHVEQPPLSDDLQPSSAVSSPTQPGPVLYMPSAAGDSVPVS
Method: RNA Bind-n-Seq
Form: RNA
Matrix: in vitro
Concentration: not given
Setting: RNA with constant flanks, human-mouse chimeric sites, ends assumed
Baseline: input RNA pool
Direction: higher = stronger binding
All sequences stand within: GGGAGUUCUACAGUCCGACGAUC … CAACAGAGGAUUGAGCAUCA
| Strand | bound/input enrichment |
| --- | --- |
| AUAAAGGCUAUGUUGAGUGGUCCAGGUCAGUUUGCUGAGAACGAAACCAACGAGGUCAAUUUUAGAGAGAUCCCCUCACAUGUGCUAUCAAAAGUGUGCAUGUAUUUUACGUACAAGGUC | 0.191 ratio |
| AGAUUCCCCCUCCUGAGGCCUUCUCCAAAGUUGGAGUCUCUUAUAGAUGCCUCAUCCCCUGUUAGCGUUUUAGUUUGGACCACCCAGCCUUGGACAAUUCCCGCCAACCAGGCAAUUUGC | 1.75 ratio |
| UUCAAAGAAAAGGGCAGCUGUGUCAUUACUUGGGAGACUCUGGGGGAGGGAAAUUCUGUUCUUUUGUUUAAUUUUCCCCCAAAUGAAGCCAAAGUGUGUGUUGAAGAACUGAGAAAAAAU | 0.28 ratio |
| UCUUAACUUAUUCAUUUAACUUAUUUUUAUAGCUAGAUAAAUAUUGUUAGUCUUAGACAAUAGCUCACAUCUUUACAGAAGCAUGCCCUCCCUAUCCAUUUGUCUUAUAACAUGACCCAG | 6.33 ratio |
| GGCCUGGGACCGUCCUGGCUAGUGCAAAAUAGCGGCAGUGGAGGCUCGAGAGGAAAGUUUGUUAGUGGAGGCAGUGGAGAGGUCGUCCAUGUACGGUCCUUUACUCGAUAGAUGUGUUCU | 0.873 ratio |
| UUUCUACUGCAGCAGACGAUGCUAAGAAUUAAGGAUCCUAAGAAGUCCCUGGAUUUUUAUACUAGAGUUCUUGGACUGACCCUCCUGCAGAAGCUUGACUUCCCUGCUAUGAAGUUCUCG | 0.401 ratio |
| GAUCAUGGAACCAGAAUAGAAAUGAAGGAUGAGACUACCAGACGAGCCAAAACAGCUGCGCUACAGAAAAGUAAACUUAACCUUGCAGAGUUCCUUAAUGAAGAUACAAGUUAAGAGAGC | 0.256 ratio |
| CUGUGACCACAAGAUCCUACCUGAGUGGCAGCUGAAGUUGACUCCCUCUCCUUGCCUGAACCCCCCCCUUUUGUUCCCCCAUCCCCCAGUGUCGGCUGAGAUGUUGCCAGCAGACAGUUC | 0.843 ratio |

Series 2
Target: RNA binding protein fox-1 homolog 2, RRM domain, GST-SBP tag (RBFOX2, Homo sapiens, UniProt O43251-10, residues 100-194)
Method: RNA Bind-n-Seq
Form: RNA
Matrix: in vitro
Concentration: 365 nM
Setting: natural RNA segment, single round, ends assumed
Baseline: no-protein control
Direction: higher = stronger binding
All sequences stand within: GGGAGUUCUACAGUCCGACGAUC … UGGAAUUCUCGGGUGCCAA
Residues (chain): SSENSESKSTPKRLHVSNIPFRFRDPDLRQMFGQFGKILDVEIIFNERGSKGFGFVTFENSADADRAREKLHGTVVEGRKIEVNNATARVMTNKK
| Strand | RBNS enrichment (R) |
| --- | --- |
| UAAAAAUUGAAAGCUUCCAGAGAGCUGCCCUGGUCUCCCUUCCUCUCCUGUAAGAGUAUUAAUGUUGGGGCCCAAGGGCUCGAGGAAGGCAGCCUCGCUCACAGCCAGGC | 0.159 |
| AGCCAUGGCCCUCCAGCUCCCCAGCCCGGCUGCGGAGUUGCAGCAGGUCCUGCCCAUCGGGCACAUGUCUCAAGCCCAUGGGGAGCAUAGCAGUCCGGGAGGCUGUGGAA | 0.716 |
| CCCCAACUCCCCUCACCAGGAGAGGCACCUGCUUGGUGCCGCCCAGGGAAGGGGCUCAGGCCUGACGGAAGGCCUGUUCUGUGUGUGCCGCCGGGCGACGUGCAUUGAUG | 0.249 |
| CUACCUGAGGUACACUUUUAAACCUCAUCUUCUAUUUCUUCCCUCUCUUCUGCAAAUGAACAAAACAAAACAUAAAGGUGGUUGUUGUAAGCUAAGUAUAUUUGUGGAGG | 0.507 |
| CUUAGCUGACAAAUUAUUGAUAAUUAAGAACUUGAAUUUGUGAUUCUUACUGCUAAUUAAAACCUAAGCAAGAAGUCUCAUGUAAUUCUGAUAGCAGAAUUGCAUUGUGU | 0.412 |
| CAAAGGGCUCUUUUUCAGCUAACCCUGGGAAGGCUCUGUGGGAGGGAGGUCGGAGCCAGCUGUUUCUCGAUCUUUGGUAUAUCUUUGGAUCUUAUUUGUACAUUAAUGAU | 0.36 |
| UUUUCAGAGCAGCUAGAUGUCUGCAUGUGUGCAUAUAUGCAUGCCCACUCCUUUCAUAUACGUUUGUGAAGCACCUGCCUUGAGUUCUAAUAAAAUUGCCCGUUUUGCAU | 11.1 |
| UAUUUAUAGUCCCUCCUAUCAAACAAUUACAGAGCACAAUGAUUGUCAUUGGGUAUAUAUGUAUUUACUCUCUAUUAUUGGGCAUAAAGGUGGCUUCUGCUCCAGAACUC | 0.421 |

Series 3
Target: Sal-like protein 4, full length isoform A (SALL4, Homo sapiens, UniProt Q9UJQ4, residues 1-1053)
Chain of UniProt Q9UJQ4 (whole entry, looked up): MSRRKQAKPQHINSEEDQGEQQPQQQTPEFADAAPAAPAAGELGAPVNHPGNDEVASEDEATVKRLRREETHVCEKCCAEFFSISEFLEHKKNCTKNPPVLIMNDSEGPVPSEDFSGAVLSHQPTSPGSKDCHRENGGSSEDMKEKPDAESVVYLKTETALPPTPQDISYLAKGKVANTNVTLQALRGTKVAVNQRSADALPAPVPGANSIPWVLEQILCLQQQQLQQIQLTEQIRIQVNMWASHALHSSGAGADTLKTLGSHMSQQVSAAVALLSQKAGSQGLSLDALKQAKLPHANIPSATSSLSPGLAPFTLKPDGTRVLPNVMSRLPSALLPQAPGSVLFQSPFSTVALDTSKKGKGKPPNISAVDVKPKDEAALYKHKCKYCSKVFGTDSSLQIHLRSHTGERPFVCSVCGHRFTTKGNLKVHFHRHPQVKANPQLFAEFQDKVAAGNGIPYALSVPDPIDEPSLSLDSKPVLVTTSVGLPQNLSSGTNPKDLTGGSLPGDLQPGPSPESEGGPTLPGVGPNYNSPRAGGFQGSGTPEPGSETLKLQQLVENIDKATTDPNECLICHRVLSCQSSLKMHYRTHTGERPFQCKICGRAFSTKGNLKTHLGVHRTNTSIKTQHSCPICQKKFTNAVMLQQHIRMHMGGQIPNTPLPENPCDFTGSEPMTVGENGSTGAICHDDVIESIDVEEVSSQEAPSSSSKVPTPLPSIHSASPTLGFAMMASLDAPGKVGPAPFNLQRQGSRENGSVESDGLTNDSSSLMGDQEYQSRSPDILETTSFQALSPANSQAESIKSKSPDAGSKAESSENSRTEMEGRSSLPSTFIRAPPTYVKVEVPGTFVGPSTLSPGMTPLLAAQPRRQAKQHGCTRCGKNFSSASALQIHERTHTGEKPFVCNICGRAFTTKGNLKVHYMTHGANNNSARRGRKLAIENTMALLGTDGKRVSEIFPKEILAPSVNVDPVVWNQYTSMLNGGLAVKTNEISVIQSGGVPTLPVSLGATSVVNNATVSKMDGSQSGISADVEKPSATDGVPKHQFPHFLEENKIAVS
Method: universal PBM
Form: double-stranded DNA, one strand shown
Matrix: in vitro
Concentration: 600 nM
Setting: 8-mer, flanks averaged, mean of replicates
Direction: higher = stronger binding
| Strand | E-score |
| --- | --- |
| GCATGCTA | -0.156 |
| CGTTTAAA | 0.178 |
| TGCCTCAA | -0.0688 |
| TAAGGGCA | -0.0743 |
| ACCGAGCC | -0.227 |
| ACCAAGAA | 0.0878 |
| CTTAAAGC | -0.0427 |
| AAACAACG | 0.0637 |
| AGAGTCAT | 0.106 |
| ATAAAGCG | 0.287 |
| GTCTAAAA | 0.115 |
| AGAGCTAC | -0.0542 |
| GCTGCCGA | -0.234 |
| AGATGGCC | -0.213 |
| ATTGTTTG | 0.187 |
| AAGCTCCC | -0.296 |
| TGCGCTAA | 0.0693 |
| CCTATAAA | 0.204 |
| AAGGGTTG | 0.0941 |
| GCCACTCA | -0.148 |
| GGCAGATA | -0.0859 |
| TGCCGACA | -0.0976 |
| GGGCCATA | -0.106 |
| ATACTTGG | 0.0352 |
| CTGACAAG | 0.147 |

Series 4
Target: ABI1, truncated, D143A, DHFR fusion (Arabidopsis thaliana)
Method: DHFR PCA, deep sequencing
Matrix: yeast
Setting: methotrexate growth selection, single substitutions
Together with: (+)-ABA 4.8 µM
Baseline: wild-type fitted maximum
Direction: higher = stronger binding
Starting sequence: PYL1, truncated, DHFR fusion (Arabidopsis thaliana); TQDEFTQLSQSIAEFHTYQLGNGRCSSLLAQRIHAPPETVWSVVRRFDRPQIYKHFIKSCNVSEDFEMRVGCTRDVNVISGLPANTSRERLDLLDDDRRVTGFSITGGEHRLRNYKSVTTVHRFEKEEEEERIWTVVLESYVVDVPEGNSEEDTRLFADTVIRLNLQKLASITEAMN
| Substitution | relative binding score |
| --- | --- |
| A158P | -12.3% |
| T6C | 69.4% |
| S26K | 31.7% |
| F103I | -2.25% |
| E151S | 69% |
| E38N | 43.6% |
| R98L | 56.7% |
| E130W | 36% |
| E128I | 43.8% |
| I162K | -0.629% |
| Q7K | 65.1% |
| R99L | 83.8% |
| F157A | 1.23% |
| S27A | 39% |
| C25Q | -29.6% |
| V100E | 1.89% |
| N177F | 75.8% |

A few entries again (series 4):
| Substitution | relative binding score |
| --- | --- |
| R99L | 83.8% |
| F157A | 1.23% |
| S27A | 39% |
| C25Q | -29.6% |
| V100E | 1.89% |
| N177F | 75.8% |
